Published values gathered from unrelated publications.
Each line is one published result; not all experiments were run side by side. Several values in a cell are separate wells, animals, samples, runs or records. ± marks the error that the study gave. Values after ≈ are worked out from the molar mass of the structure shown.
WD repeat-containing protein 91 WD40 domain, residues 392–747: WD repeat-containing protein 91, WD40 domain, residues 392–747 (Homo sapiens, UniProt A4D1P6)
UniProt A4D1P6, sequence (whole entry, looked up): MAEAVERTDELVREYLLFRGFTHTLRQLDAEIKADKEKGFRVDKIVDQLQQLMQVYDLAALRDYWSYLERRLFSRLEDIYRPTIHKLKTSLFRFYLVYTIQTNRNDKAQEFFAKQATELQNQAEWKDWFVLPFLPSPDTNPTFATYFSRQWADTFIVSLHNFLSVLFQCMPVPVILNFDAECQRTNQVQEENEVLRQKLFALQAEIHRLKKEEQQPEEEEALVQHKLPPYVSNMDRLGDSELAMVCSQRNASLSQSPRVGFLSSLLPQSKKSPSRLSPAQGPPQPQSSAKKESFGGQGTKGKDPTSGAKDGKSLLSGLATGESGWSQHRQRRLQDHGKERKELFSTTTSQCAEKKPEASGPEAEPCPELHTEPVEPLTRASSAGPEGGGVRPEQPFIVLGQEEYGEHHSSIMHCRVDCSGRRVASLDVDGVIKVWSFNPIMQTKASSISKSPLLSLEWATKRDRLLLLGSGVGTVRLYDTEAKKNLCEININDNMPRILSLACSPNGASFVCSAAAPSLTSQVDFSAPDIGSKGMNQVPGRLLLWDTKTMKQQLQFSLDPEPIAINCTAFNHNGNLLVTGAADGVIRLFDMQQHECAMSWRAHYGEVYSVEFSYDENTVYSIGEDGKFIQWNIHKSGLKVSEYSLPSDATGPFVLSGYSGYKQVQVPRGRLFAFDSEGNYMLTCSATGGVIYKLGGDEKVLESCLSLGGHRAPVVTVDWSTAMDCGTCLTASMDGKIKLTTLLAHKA
Genome polyprotein NS3 helicase domain: Genome polyprotein, NS3 helicase domain (Hepatitis C virus genotype 1b, UniProt Q9WMX2)
ESR1: Estrogen receptor (ESR1, Homo sapiens, UniProt P03372)
WD repeat-containing protein 91: WD repeat-containing protein 91 (Homo sapiens, UniProt A4D1P6)
UniProt O76090, sequence (whole entry, unmodified, looked up): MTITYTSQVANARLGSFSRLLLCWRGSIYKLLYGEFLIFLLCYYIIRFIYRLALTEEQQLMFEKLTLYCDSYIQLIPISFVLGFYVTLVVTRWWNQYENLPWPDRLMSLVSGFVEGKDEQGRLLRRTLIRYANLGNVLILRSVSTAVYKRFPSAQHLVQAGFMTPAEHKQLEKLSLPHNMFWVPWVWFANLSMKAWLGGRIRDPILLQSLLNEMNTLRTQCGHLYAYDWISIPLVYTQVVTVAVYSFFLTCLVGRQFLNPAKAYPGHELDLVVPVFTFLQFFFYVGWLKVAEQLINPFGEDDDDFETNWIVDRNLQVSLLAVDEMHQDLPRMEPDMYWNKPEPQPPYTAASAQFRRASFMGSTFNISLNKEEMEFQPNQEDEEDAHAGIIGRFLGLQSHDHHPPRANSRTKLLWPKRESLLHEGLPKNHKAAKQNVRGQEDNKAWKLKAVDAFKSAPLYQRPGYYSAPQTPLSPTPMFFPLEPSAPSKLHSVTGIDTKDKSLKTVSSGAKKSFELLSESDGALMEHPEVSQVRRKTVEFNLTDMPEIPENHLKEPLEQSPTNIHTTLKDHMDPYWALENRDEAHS
UniProt P51575, sequence (whole entry, unmodified, looked up): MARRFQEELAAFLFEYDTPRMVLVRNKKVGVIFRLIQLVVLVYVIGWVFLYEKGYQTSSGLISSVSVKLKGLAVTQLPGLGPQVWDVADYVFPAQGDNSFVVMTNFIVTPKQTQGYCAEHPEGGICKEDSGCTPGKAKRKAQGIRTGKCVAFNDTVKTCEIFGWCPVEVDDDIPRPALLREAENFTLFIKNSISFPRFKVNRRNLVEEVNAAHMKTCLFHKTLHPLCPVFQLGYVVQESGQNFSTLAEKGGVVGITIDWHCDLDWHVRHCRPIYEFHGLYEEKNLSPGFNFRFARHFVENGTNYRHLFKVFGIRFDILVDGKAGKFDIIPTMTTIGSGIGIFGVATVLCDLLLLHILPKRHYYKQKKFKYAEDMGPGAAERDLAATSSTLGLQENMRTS
UniProt O75477, sequence (whole entry, looked up): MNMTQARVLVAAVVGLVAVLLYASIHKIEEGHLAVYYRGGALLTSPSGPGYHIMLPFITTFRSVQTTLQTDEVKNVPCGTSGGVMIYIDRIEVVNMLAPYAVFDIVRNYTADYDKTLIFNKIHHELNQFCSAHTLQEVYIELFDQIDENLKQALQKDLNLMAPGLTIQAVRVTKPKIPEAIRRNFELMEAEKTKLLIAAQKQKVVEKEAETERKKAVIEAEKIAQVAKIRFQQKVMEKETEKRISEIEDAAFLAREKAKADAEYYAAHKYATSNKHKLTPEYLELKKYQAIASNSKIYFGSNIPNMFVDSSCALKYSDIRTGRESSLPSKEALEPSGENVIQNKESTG

CN1CCCCC1Cc1cn(Cc2ccc(C(=O)N3CCC(C#N)CC3)cc2)nn1 (centres unmarked) — binding (WD repeat-containing protein 91 WD40 domain, residues 392–747; SPR; 45 µM): -20% and -6%
COc1ccccc1CNCCCCCCNCCCCCCCCNCCCCCCNCc1ccccc1OC.Cl.Cl.Cl.Cl — inhibition (Genome polyprotein NS3 helicase domain; DNA binding, inhibitor; hepatitis C virus; 100 µM, with: Cy5-dT15 DNA): 11%
COc1cccc2c(N3CCC(CCP(=O)(O)O)CC3)ncnc12 — IC95 (Ectonucleotide pyrophosphatase/phosphodiesterase family member 1 (ENPP1, Homo sapiens, UniProt P22413); inhibitor): 14 ng/mL (≈ 0.0398 µM)
Nc1ccc(C(=O)O)cc1 — current density (BEST1, with wild-type BEST1 (Homo sapiens, UniProt O76090, Q293K); ion current, whole-cell patch clamp; HEK293 co-expressing mutant and wild-type; concentration not given, voltage 0 mV): 0.11 pA/pF and -0.09 pA/pF and -0.07 pA/pF and -0.06 pA/pF and 0.03 pA/pF
O=C1CC[C@H](N2Cc3cc(N4CCN(CC5CCN(c6ccc([C@@H]7c8ccc(O)cc8CC[C@@H]7c7ccccc7)cc6)CC5)CC4)ccc3C2=O)C(=O)N1 — Dmax (ESR1; degrader, in-cell western; MCF7; 72 h): 95%
O=C(CSc1nnc(-c2ccccc2O)n1-c1ccccc1)Nc1cccc(C(=O)O)c1 — Kd (Cyclin-dependent kinase 2, with cyclin A (CDK2, Homo sapiens, UniProt P24941)): > 100 µM
Cc1[nH]c(=O)c(C#N)cc1-c1ccncc1 — Hill coefficient (cGMP-inhibited 3',5'-cyclic phosphodiesterase 3A (PDE3A, Homo sapiens, UniProt Q14432); enzyme activity): 0.6
Nc1c(Br)cc(Br)cc1CN[C@H]1CC[C@H](O)CC1 — potentiation (Glutamate receptor 2 (Homo sapiens, UniProt P42262); ion current, positive allosteric modulator, SyncroPatch patch clamp; HEK293; 30 µM): 80%
CC(=C/C(=O)O)/C=C/C=C(\C)C1C=C2C(C)(C)CCCC2(C)O1 (centres unmarked) — plasma membrane localization (Rhodopsin (RHO, Homo sapiens, UniProt P08100, T17M); immunostaining, measured: opsin; COS-7 transfected; 0.05 µM, unit not given; baseline: surface over total stained cells): 0
O=C(COP(=O)(O)O)[C@@H](O)[C@H](O)[C@H](O)COP(=O)(O)O — thermal stability ratio (Erlin-1 (Homo sapiens, UniProt O75477); thermal proteome profiling; HepG2 cell lysate; concentration not given, 57 over 37 °C, mean; baseline: compound over control): 4.39
CCOc1ccc2c(-c3cc(C)nc(Nc4cc(OC)cc(C(F)(F)F)c4)n3)cnn2n1 — binding (Homeodomain-interacting protein kinase 2 (HIPK2, Homo sapiens, UniProt Q9H2X6); NanoBRET target engagement; live cells; concentration not given, no binding): no binding
C=CC(=O)N1CCC(COCC(=O)N2CCN(c3nc(-c4cnc(N)nc4C(F)F)nc(N4CCOC[C@@H]4C)n3)CC2)CC1 — remaining binding (Serine/threonine-protein kinase MRCK alpha (CDC42BPA, Homo sapiens, UniProt Q5VT25); KINOMEscan; 1 µM): 100%
CC[C@H](C)[C@H](NC(=O)[C@H](CCCCN)NC(=O)CNC(=O)[C@@H](NC(=O)[C@@H](NC(=O)[C@H](CCSC)NC(=O)[C@H](Cc1c[nH]cn1)NC(=O)CN)[C@@H](C)O)C(C)C)C(=O)N[C@@H](Cc1ccc(O)cc1)C(=O)N[C@@H](C)C(=O)N[C@@H](C)C(=O)N[C@@H](CCSC)C(=O)N[C@@H](CCSC)C(=O)N[C@@H](C)C(=O)N[C@@H](CCSC)C(=O)N[C@@H](CCC(=O)O)C(=O)N[C@@H](Cc1ccc(O)cc1)C(=O)N[C@@H](Cc1ccc(O)cc1)C(=O)N[C@@H](CCCNC(=N)N)C(=O)N[C@@H](CCC(N)=O)C(=O)N[C@@H](CO)C(=O)N[C@@H](CCCCN)C(=O)N[C@@H](C)C(=O)N[C@@H](CCCCN)C(=O)N[C@@H](CCCCN)C(=O)N[C@@H](CC(C)C)C(=O)N[C@@H](CCC(N)=O)C(=O)N[C@@H](C)C(=O)N[C@@H](CCSC)C(=O)N[C@@H](CCCNC(=N)N)C(=O)O — ΔS (Calmodulin-1, Ca2+-bound N-lobe (CALM1, Homo sapiens, UniProt P0DP23); binding, isothermal titration calorimetry; pH 7.4, 15 °C, N-lobe, CaV2.1 IQ domain, with: Ca2+): 16.5 cal/mol/K
CN(C)CCOC(=O)COc1ccc(Cl)cc1 — inhibition (Genome polyprotein NS3 helicase domain; DNA binding, inhibitor; hepatitis C virus; 100 µM, with: Cy5-dT15 DNA): 0%
CCN1CCN(c2cc(N3CCN(CC)CC3)nc(NCCNc3ccnc4cc(Cl)ccc34)n2)CC1 — activation (Nuclear receptor ROR-gamma (RORC, Homo sapiens, UniProt P51449); reporter gene, Gal4 hybrid reporter; 20 µM; baseline: vehicle): 0.77 fold
Cn1cc(-c2ccc(-c3cncc(Cl)c3N3CCC4(CCNC4=O)CC3)cc2)cn1 — fold change in expression (COLO 205; microarray, measured: FSCN1; concentration not given, 6 h, gene set Fascin; baseline: untreated cells): 2.2
N#CC1CCN(C(=O)c2ccc(Cn3cc(-c4ccc5ncccc5c4)nn3)cc2)CC1 — SPR response (WD repeat-containing protein 91 WD40 domain, residues 392–747; binding, SPR single-concentration screen; 45 µM): 2.5 RU and 2.2 RU
Nc1ncnc2c1ncn2[C@@H]1O[C@H](COP(=O)(O)CP(=O)(O)OP(=O)(O)O)[C@@H](O)[C@H]1O — calcium influx (P2X purinoceptor 1 (P2RX1, Homo sapiens, UniProt P51575, F188L); calcium influx; 1 µM; baseline: ionomycin response): 99.3% and 100% and 85.3%
N#CC1CCN(C(=O)c2ccc(SCc3cn4ccccc4n3)cc2)CC1 — SPR response (WD repeat-containing protein 91 WD40 domain, residues 392–747; binding, SPR single-concentration screen; 45 µM): -6.4 RU and -0.9 RU
O=C(O)c1ccc(Nc2ncc3c(n2)-c2ccc(Cl)cc2C(c2c(F)cccc2F)=NC3)cc1 — remaining activity (EphB1(h); kinase activity; 1 µM): 35%
O=C(NC1CCCS(=O)(=O)c2ccccc21)c1ccc2nc(O)cnc2c1 (centres unmarked) — SPR response (WD repeat-containing protein 91; binding, SPR steady state; 0.9375 µM): 7.33 RU
CC[C@@H]1[C@H](F)C(=O)N[C@@H]1COc1nccc2cc(C(N)=O)c(OC)cc12 — inhibition (eIF-2-alpha kinase GCN2 (EIF2AK4, Homo sapiens, UniProt Q9P2K8); ATP-site probe binding, ActivX profiling, measured: GCN2; THP-1 cell lysate; 0.2 mM, Lys2 site): 1.7%
O=C(c1ccc(F)cc1)C1CCN(CCn2c(=O)[nH]c3ccccc3c2=O)CC1 — inhibition (Genome polyprotein NS3 helicase domain; DNA binding, inhibitor; hepatitis C virus; 100 µM, with: Cy5-dT15 DNA): 2%
COc1cc(/C=C/C(=O)C(=Cc2cccc(O)c2)C(=O)/C=C/c2ccc(O)c(OC)c2)ccc1O — ΔG (haemin; binding, isothermal titration calorimetry; pH 7.4, 37 °C): -32.2 ± 1.06 kJ/mol
COc1ccc(CCC(=O)c2ccc(O)cc2)c(OC)c1 — selectivity ratio (ESR1; array formation; PRL-HeLa; baseline: EC50 ERβ over EC50 ERα): 0.657
CN(CC(=O)O)C(=N)N — product formation (N-alpha-acetyltransferase 80 (NAA80, Homo sapiens, UniProt Q93015); substrate, DTNB; 2 mM, 30 min, 37 °C, with: acetyl-CoA 500 µM): -1.05 µM
COc1cc2nc(N3CCCN(C)CC3)nc(NC3CCN(Cc4ccccc4)CC3)c2cc1OC — inhibition (Genome polyprotein NS3 helicase domain; DNA binding, inhibitor; hepatitis C virus; 100 µM, with: Cy5-dT15 DNA): 3%
CC(=O)N[C@@H](CC(N)=O)C(=O)N[C@@H](CC(C)C)C(=O)NCC(=O)N[C@@H](CCCCN)C(=O)N[C@@H](Cc1c[nH]cn1)C(=O)N[C@@H](CCC(=O)O)C(=O)N[C@@H](CCCCN)C(=O)N[C@@H](Cc1ccccc1)C(=O)N[C@@H](CO)C(=O)N[C@@H](CCC(=O)O)C(=O)N[C@H](C(=O)N[C@@H](CC(C)C)C(=O)N[C@@H](CCCCN)C(=O)N[C@@H](CCCNC(=N)N)C(=O)N[C@@H](CC(C)C)C(=O)N[C@@H](CCCNC(=N)N)C(=O)N[C@@H](CC(C)C)C(=O)N[C@@H](CCC(N)=O)C(N)=O)C(C)C — binding stoichiometry (Calmodulin-1 (CALM1, Homo sapiens, UniProt P0DP23); ITC; concentration not given, full-length, with: CaCl2 1 mM): 2.12
CCn1c(SCC(=O)Nc2cccc(C(C)=O)c2)nnc1-c1ccncc1 — Kd (Cyclin-dependent kinase 2 (CDK2, Homo sapiens, UniProt P24941); binding): > 100 µM
CCn1c(=O)[nH]c2cc(C(=O)NC(c3ccc(F)cc3)c3cnn(C)c3)ccc2c1=O (centres unmarked) — SPR response (WD repeat-containing protein 91; binding, SPR steady state; 0.1172 µM): 1.5 RU
CC(NCCc1ccc(O)cc1)C(O)c1ccc(O)cc1 (centres unmarked) — inhibition (Genome polyprotein NS3 helicase domain; DNA binding, inhibitor; hepatitis C virus; 100 µM, with: Cy5-dT15 DNA): 0%
CC(=O)N[C@H](C(=O)N[C@@H](CC(N)=O)C(=O)N[C@@H](CCCCN)C(=O)N1CCC[C@H]1C(=O)N[C@@H](CC(C)C)C(=O)N1CCC[C@H]1C(=O)N1CCC[C@H]1C(=O)N[C@@H](CC(C)C)C(=O)N1CCC[C@H]1C(=O)N[C@H](C(=O)N[C@@H](C)C(N)=O)C(C)C)C(C)C — -TΔS (Tyrosine-protein kinase Fyn, SH3 domain (FYN, Homo sapiens, UniProt P06241); binding, isothermal titration calorimetry; 50 mM sodium phosphate, 100 mM NaCl; pH 7.0, 25 °C): 9 ± 1 kJ/mol

Repeated from above:
COc1cccc2c(N3CCC(CCP(=O)(O)O)CC3)ncnc12 — IC95 (Ectonucleotide pyrophosphatase/phosphodiesterase family member 1 (ENPP1, Homo sapiens, UniProt P22413); inhibitor): 14 ng/mL (≈ 0.0398 µM)
CCn1c(SCC(=O)Nc2cccc(C(C)=O)c2)nnc1-c1ccncc1 — Kd (Cyclin-dependent kinase 2 (CDK2, Homo sapiens, UniProt P24941); binding): > 100 µM
